Assay results pooled from the literature.
Numbered parts are unrelated; each lists some results of a single study.

Series 1
Target: RING finger protein unkempt homolog, zinc fingers 1-6, GST-SBP tag (UNK, Homo sapiens, UniProt Q9C0B0, residues 30-357)
Technique: RNA Bind-n-Seq
Form: RNA
Matrix: in vitro
Concentration: not given
Notes: RNA with constant flanks, ends assumed
Relative to: input RNA pool
Reading: higher = stronger binding
Quantity: bound/input enrichment
Target sequence (chain): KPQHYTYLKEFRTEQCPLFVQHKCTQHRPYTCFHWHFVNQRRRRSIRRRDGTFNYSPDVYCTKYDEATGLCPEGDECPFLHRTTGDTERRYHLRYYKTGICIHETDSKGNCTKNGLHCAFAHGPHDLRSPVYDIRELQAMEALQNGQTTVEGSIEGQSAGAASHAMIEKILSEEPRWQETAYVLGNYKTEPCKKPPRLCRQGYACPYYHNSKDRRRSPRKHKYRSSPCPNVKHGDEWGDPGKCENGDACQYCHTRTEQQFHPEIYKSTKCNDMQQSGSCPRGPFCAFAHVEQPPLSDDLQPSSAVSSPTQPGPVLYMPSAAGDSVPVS
Oligonucleotide = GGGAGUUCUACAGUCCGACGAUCAAUAAAGCUGUUGUGUUGCGGGGCCAUGAAUCUGAAGUUUUUAUCUGUGCCUGGAACCCUGUCCGUGAUCUCCUAGCAUCAGGGUCUGGAGACUCAACAGCAAGAAUAUGGAAUCUUAGUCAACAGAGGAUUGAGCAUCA; value = 0.357 ratio
Oligonucleotide = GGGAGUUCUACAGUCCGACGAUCGGGAAACAGUUUGAUUCUCCCAUGCCAAGUCCCUUUCAAGGGGGAAGCUUCACUCUUCCUUCCGAUGUCAUGAAGAAUGAAAUAGUUACAGAAACAUCGCCCUUUGCCCCUGCCUUUUUACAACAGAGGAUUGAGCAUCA; value = 0.198 ratio
Oligonucleotide = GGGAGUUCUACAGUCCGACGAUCCUCAGGAUGUCUUCAUCACAUUUUGCCAGUCGACACAGGAAGGAUAUAAGUACUGAAAUGAUCCGAACUAAAAUUGCUCAUAGGAAAUCACUGUCUCAGAAAGAAAAUAGACAUAAGGAACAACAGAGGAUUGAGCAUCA; value = 1.16 ratio
Oligonucleotide = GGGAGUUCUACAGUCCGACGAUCCCUUGGCACUGGCCUCCAGCAAGCCCUGUUCUCUUUGGGGUACAGGGGAACGGGAUGGUUCCGACUUUCCUGCUCAGUGUGUAAAAAAUGUAGCUAAAGCCACUAUUUUUGCUCUCCUUACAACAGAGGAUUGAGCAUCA; value = 0.206 ratio
Oligonucleotide = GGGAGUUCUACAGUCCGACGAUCUACUUUACAAUCAUCCACACUGUGGUCUGUGGAUCUUUAAUAUAUAUAUAUAUAAAACAACCGCCGUCAUUUUUAAGUAUAUUCUGAAACCUUUGCAAAUUUUAAGAGAAGAGUCGAAGCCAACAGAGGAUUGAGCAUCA; value = 1.67 ratio
Oligonucleotide = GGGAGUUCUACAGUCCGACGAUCGAGAAAAUCAAGAUCAAGCCAGCCCCGUACCCCAUGGGAAGCAGCCAUGCUUCCGCCAGCCGCAUCAGCUUUAACCCCAGCCCUGAGGAGCCGGCCUAUGAUGGCCCAAGCACCAGCAGUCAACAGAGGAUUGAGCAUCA; value = 0.128 ratio
Oligonucleotide = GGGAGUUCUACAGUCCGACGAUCAGUCUGGUGAAUGAGACCACUCUGAUCAAAUACUCCAGGCUGCCAACCAUAAACAAGCACCGUUUCCGGUACUUUGUUUUGGAUAACAGUGUCAUCCUGGCAAUGCUGGAGCAACCGCUUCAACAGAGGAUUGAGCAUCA; value = 0.0289 ratio
Oligonucleotide = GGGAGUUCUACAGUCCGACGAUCACACACACCCUAGAAUGCUCGCUUUGCAGCACAGGCAGGAGCAGCAGCAAGCAGCAGGUGUUCCGAUCCUUGGUUUUGAGAAAUUCCCCCCUAAGUAUGUGGCAAUAAGUAUAAGCCACUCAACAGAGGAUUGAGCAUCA; value = 0.14 ratio

Series 2
Target: Protein C-ets-1 (ETS1, Homo sapiens, UniProt P14921, residues 1-441, K379A, full length assumed)
Technique: protein-binding microarray
Form: double-stranded DNA, one strand shown
Matrix: in vitro
Concentration: not given
Notes: k-mer, scored over probes, only values ≥0.25
Reading: higher = stronger binding
Quantity: E-score
Target sequence (chain): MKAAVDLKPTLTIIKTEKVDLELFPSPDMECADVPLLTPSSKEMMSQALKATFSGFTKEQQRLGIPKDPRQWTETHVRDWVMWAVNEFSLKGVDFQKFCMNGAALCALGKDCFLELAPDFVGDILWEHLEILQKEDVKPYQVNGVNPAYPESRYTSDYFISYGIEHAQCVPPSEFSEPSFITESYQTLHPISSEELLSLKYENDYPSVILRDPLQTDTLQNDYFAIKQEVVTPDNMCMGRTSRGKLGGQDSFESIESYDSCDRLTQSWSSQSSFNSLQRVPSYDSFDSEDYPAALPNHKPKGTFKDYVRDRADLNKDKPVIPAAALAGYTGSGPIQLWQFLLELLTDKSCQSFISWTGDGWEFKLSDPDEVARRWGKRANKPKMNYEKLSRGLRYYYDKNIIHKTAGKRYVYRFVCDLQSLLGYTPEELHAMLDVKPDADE
Oligonucleotide = ATGTTTCC; value = 0.26
Oligonucleotide = ATTCCCGG; value = 0.344
Oligonucleotide = ACTATAGT; value = 0.264
Oligonucleotide = ACCGGAAT; value = 0.413
Oligonucleotide = TACTGTAA; value = 0.291

Series 3
Target: RNA binding protein fox-1 homolog 2, RRM domain, GST-SBP tag (RBFOX2, Homo sapiens, UniProt O43251-10, residues 100-194)
Technique: RNA Bind-n-Seq
Form: RNA
Matrix: in vitro
Concentration: 365 nM
Notes: natural RNA segment, single round, ends assumed
Relative to: no-protein control
Reading: higher = stronger binding
Quantity: RBNS enrichment (R)
Construct (chain): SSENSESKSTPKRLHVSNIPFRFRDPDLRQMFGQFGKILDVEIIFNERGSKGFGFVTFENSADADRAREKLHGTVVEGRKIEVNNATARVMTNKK
Oligonucleotide = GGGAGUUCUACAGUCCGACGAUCAUACUGUUACAUCCAGAACAUUUGUCAGGCUCUCUGUCAGCUUUCAUGUACAUAUGGUAUAGAAACCAUGGAGUUAGGCACUUCCUGGAUUUUUUUUUUAUGAGAAAAAUUGGAAUUCUCGGGUGCCAA; value = 0.339
Oligonucleotide = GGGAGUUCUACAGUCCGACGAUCAAGGUGAGAUAUAAAUGUAUAUAGACAUGUAGCUGAGGAUAUUAAUUUCAGUCUUAAAGUGUGACUUGUAAGGAGCCAAGCUGUACAGUUUAGUUCAUGAUGGCAGCUCUUGGAAUUCUCGGGUGCCAA; value = 0.711
Oligonucleotide = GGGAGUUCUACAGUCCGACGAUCGGAGCCAGUACCACUUCCAGCAGUGAGAGCUUUGAGGAGGAGAAGGGGCCUGGGCUCGGCCUAGCCAGCGCUCUCCCAGAAUUGAACACUUUCUGCCUGGGAUGUCUGCUUGGAAUUCUCGGGUGCCAA; value = 0.658
Oligonucleotide = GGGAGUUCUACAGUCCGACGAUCGCACGGUUUGGAAAUAUUCACAUCGCUUCUGUGUAUCUCUUUCACAUUGUUUGCUGCUAUUGGAGGAUCAGUUUUUUGUUUUACAAUGUCAUAUACUGCCAUGUACUAGUUGGAAUUCUCGGGUGCCAA; value = 2.84
Oligonucleotide = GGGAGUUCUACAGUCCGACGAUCUGAGAUACCGGUUACUUCCCUGGUCCUGAGAGUCACCUGUGGUCACCCCUCUUCCCAGGCCUGACUUCUGAGUAGGACCCUGGGUCAGGGCUAAGUGUUGAAUUUACCCUUGGAAUUCUCGGGUGCCAA; value = 0.294
Oligonucleotide = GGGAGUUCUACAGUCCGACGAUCGUCUGUCUACUACACACUCUGGUUUCUCCCUGCACUGUCUUUUUACUGUUAGCCAAACAUUUUGCCUGUUUUCUGUCUCCAGAUGUGUGAUAAUUGGUGUGAGGUUGAAAUGGAAUUCUCGGGUGCCAA; value = 2.4
Oligonucleotide = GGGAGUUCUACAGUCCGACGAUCUUUACAAGCUUUAUAAUUUUAUGAUUUUUUAAUCGUGUUUUGUCACAGACUUCCCUAGUGUUUGUACUACACGUAGUCAGAAGCGAGUGUCCUUUUCUUUUGCUUCAGGCUGGAAUUCUCGGGUGCCAA; value = 0.577
Oligonucleotide = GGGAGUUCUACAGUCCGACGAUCUGUAGGUAGUUGGAAGUGUAGAGAGAAGAGAAGGUAAGACUUCUCAGUGAAUGGAAGGAUGUCUUGAUGCUCAAGAGUCCCCGCCCCCAAAGUACGGGUAAUUCAGCCUGUGGAAUUCUCGGGUGCCAA; value = 1.12

Series 4
Target: Replicase polyprotein 1ab, nsp13 helicase (rep, Severe acute respiratory syndrome coronavirus 2, UniProt P0DTD1)
Action: inhibitor
Concentration: 20 µM
Quantity: inhibition
Compound = CC(=O)OCC(=O)[C@@]12OC3(CCCC3)O[C@@H]1C[C@H]1[C@@H]3CCC4=CC(=O)C=C[C@]4(C)[C@@]3(F)[C@@H](O)C[C@@]12C; value = 3.34%
Compound = O=C(Oc1cc(S(=O)(=O)c2ccccc2)ccc1[N+](=O)[O-])c1ccc(Cl)cc1; value = -0.91%
Compound = CC1=C(/C=C/C(=C/C=C/C(C)=C/C(=O)O)c2ccc(C)cc2)C(C)(C)CCC1; value = 26.5%
Compound = CN(C)CCCSC(=N)N; value = -2.69%
Compound = N=C(N)NN; value = 5.81%
Compound = COC(=O)N[C@H](C(=O)N1CCC[C@H]1c1nc(-c2ccc3c(c2)O[C@@H](c2ccccc2)n2c-3cc3cc(-c4c[nH]c([C@@H]5CCCN5C(=O)[C@@H](NC(=O)OC)C(C)C)n4)ccc32)c[nH]1)C(C)C; value = 6.07%
Compound = Cc1c(C(=O)Nc2ccc(N3CCC(N4CCOCC4)CC3)c(C#N)c2)cnn1-c1ccc(Cl)cc1; value = 9.01%
Compound = C[C@H]1COc2c(C3(N)CC3)c(F)cc3c(=O)c(C(=O)O)cn1c23; value = 2.69%
Compound = CC(C)(C)C(=O)OCOP(=O)(COCCn1cnc2c(N)ncnc21)OCOC(=O)C(C)(C)C; value = 3.2%
Compound = CCCCc1nc(Cl)c(CO)n1Cc1ccc(-c2ccccc2-c2nnn[nH]2)cc1; value = 9.37%
Compound = O=C(Nc1ccccc1Br)N[C@@H]1CCN(c2ccc(C(F)(F)F)cn2)C1; value = 10.7%
Compound = CCCCOc1ccc(CC(=O)NO)cc1; value = 3.13%
Compound = CN1C(=O)N(c2ccc(C#N)c(C(F)(F)F)c2)C(=O)[C@@]1(CO)c1ccccc1; value = 3.87%
Compound = O=c1[nH]cc(F)c(=O)[nH]1; value = 3.47%
Compound = NS(=O)(=O)c1cc2c(cc1C(F)(F)F)NC(Cc1ccccc1)NS2(=O)=O (stereo not drawn); value = 0.78%
Compound = COC(=O)c1cc(OC)c2c(c1-c1c(C(=O)OC)cc(OC)c3c1OCO3)OCO2; value = 2.44%
Compound = O=C(O)c1ccc(NC2O[C@H](CO)[C@@H](O)[C@H](O)[C@@H]2O)cc1 (stereo in doubt); value = -5.15%
Compound = Clc1cccc(N2CCNCC2)c1; value = 6.43%
Compound = CC(C)C(=O)Oc1ccc(CO)cc1[C@H](CCN(C(C)C)C(C)C)c1ccccc1; value = 2.32%
Compound = O=C(O)CC(=O)C(=O)O; value = -2.85%
Compound = CCn1ccnc1CC1COc2ccccc2O1 (stereo not drawn); value = 8.34%
Compound = CC(C)(C)Sc1c(CC(C)(C)C(=O)O)n(Cc2ccc(Cl)cc2)c2ccc(OCc3ccc4ccccc4n3)cc12; value = 4.18%

Series 5
Target: Replicase polyprotein 1ab, main protease (rep, Severe acute respiratory syndrome coronavirus 2, UniProt P0DTD1)
Effect on: enzyme activity
Action: inhibitor
Concentration: 20 µM
Notes: primary screen
Quantity: inhibition
SMILES = N=C(N)c1cc2ccc(OC(=O)c3cccs3)cc2s1; value = 40.8%
SMILES = O=C1/C(=C/c2ccc([N+](=O)[O-])cc2)CS(=O)(=O)C/C1=C\c1ccc([N+](=O)[O-])cc1; value = 28.9%
SMILES = Nc1nc(Nc2ccc3c(c2)CC[C@@H](N2CCCC2)CC3)nn1-c1cc2c(nn1)-c1ccccc1CCC2; value = 30.2%

Other studies, line by line
Concentration: concentration not given
Relative to: vehicle
Molecule = benzalkonium chloride; cell line = HEK-293T/ACE2; quantity = nuclei number; value = 84.2%
Molecule = CO[C@H]1C[C@@H]2CC[C@@H](C)[C@@](O)(O2)C(=O)C(=O)N2CCCC[C@H]2C(=O)O[C@H]([C@H](C)C[C@@H]2CC[C@@H](OCCO)[C@H](OC)C2)CC(=O)[C@H](C)/C=C(\C)[C@@H](O)[C@@H](OC)C(=O)[C@H](C)C[C@H](C)/C=C/C=C/C=C/1C; cell line = HEK-293T-ACE2; quantity = cell number; value = 99.2%

A few entries again (series 4):
Compound = Cc1c(C(=O)Nc2ccc(N3CCC(N4CCOCC4)CC3)c(C#N)c2)cnn1-c1ccc(Cl)cc1; value = 9.01%
Compound = CC1=C(/C=C/C(=C/C=C/C(C)=C/C(=O)O)c2ccc(C)cc2)C(C)(C)CCC1; value = 26.5%
Compound = O=C(Oc1cc(S(=O)(=O)c2ccccc2)ccc1[N+](=O)[O-])c1ccc(Cl)cc1; value = -0.91%
Compound = O=c1[nH]cc(F)c(=O)[nH]1; value = 3.47%
